Results gathered from unrelated publications.
Numbered parts are unrelated; each lists some results of a single study.

Study 1
Target: Microphthalmia-associated transcription factor, full length (MITF, Homo sapiens, UniProt O75030-10, residues 1-413)
Technique: protein-binding microarray
Molecule type: hairpin DNA
Sample: in vitro
Tested at: not given
Setting: whole hairpin DNA, median over replicate spots
Baseline: not given
Reading: higher = stronger binding
| Sequence | median fluorescence |
| --- | --- |
| GAGGCCTACGACGTGCTGCCTCCTGGCAGCACGTCGTAGGCCTCACACTC (5mC at 9 35) | 6230 a.u. |
| CACTTAGCATGTGATTTTGGTCCTCCAAAATCACATGCTAAGTGACACTC | 17300 a.u. |
| CACTTAGCACGTGATTTTGGTCCTCCAAAATCACGTGCTAAGTGACACTC | 26500 a.u. |
| CACTTAGCACGTGCGTTTGGTCCTCCAAACGCACGTGCTAAGTGACACTC (5mC at 30) | 18400 a.u. |
| GAGGCCTAGGACGTGCTGCCTCCTGGCAGCACGTCCTAGGCCTCACACTC | 6310 a.u. |
| CACTTAGTACGTGATTTTGGTCCTCCAAAATCACGTACTAAGTGACACTC | 6390 a.u. |

Study 2
Molecule: PhoQ, residues 284 288 289 292 302 303 SSTLLI
Technique: Sort-seq
Measured: YFP reporter
Sample: E. coli
Setting: PhoQ-PhoP variant library
Added: 10 µM Mg2+
Baseline: high Mg2+ state
Reading: higher = stronger signaling
| target | fold induction |
| --- | --- |
| PhoP, residues 12 14 15 18 19 AYFRS (Escherichia coli, UniProt P23836) | 2.01 |
| PhoP, residues 12 14 15 18 19 SFCSL (Escherichia coli, UniProt P23836) | 28.4 |
| PhoP, residues 12 14 15 18 19 HHYTI (Escherichia coli, UniProt P23836) | 0.994 |

Study 3
Target: Histone acetyltransferase KAT6A, winged helix 1, GST fusion (KAT6A, Homo sapiens, UniProt Q92794, residues 1-85)
Technique: protein binding microarray
Molecule type: double-stranded DNA, one strand shown
Sample: in vitro
Tested at: not given
Setting: 8-mer, flanks averaged, mean of 2 arrays, mostly near background
Baseline: not given
Reading: higher = stronger binding
Construct (chain): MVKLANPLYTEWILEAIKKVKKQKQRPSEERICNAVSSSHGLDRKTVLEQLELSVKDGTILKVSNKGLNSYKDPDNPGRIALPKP
| Sequence | E-score |
| --- | --- |
| AGATATGC | -0.0237 |
| ATAAATCG | -0.0167 |
| AGCTCGGG | -0.00104 |
| GCGATGCC | 0.282 |
| CCAAAGGG | -0.209 |

Study 4
Target: Interferon regulatory factor 7, full length, phosphomimetic (IRF7, Homo sapiens, UniProt Q92985, residues 1-503, S101K/S471D/S472D/S475D/S476D/S477D/S483D/S484D/S487D)
Technique: protein-binding microarray
Molecule type: double-stranded DNA, one strand shown
Sample: in vitro
Tested at: 250 nM
Setting: 60-bp whole probe
Added: salmon DNA 0.4 mg/ml
Baseline: random background probes
Reading: higher = stronger binding
Constant ends, left off below: GCCTAGCAC … GTCTTGATTCGCTTGACGCTGCTG
Target sequence (chain): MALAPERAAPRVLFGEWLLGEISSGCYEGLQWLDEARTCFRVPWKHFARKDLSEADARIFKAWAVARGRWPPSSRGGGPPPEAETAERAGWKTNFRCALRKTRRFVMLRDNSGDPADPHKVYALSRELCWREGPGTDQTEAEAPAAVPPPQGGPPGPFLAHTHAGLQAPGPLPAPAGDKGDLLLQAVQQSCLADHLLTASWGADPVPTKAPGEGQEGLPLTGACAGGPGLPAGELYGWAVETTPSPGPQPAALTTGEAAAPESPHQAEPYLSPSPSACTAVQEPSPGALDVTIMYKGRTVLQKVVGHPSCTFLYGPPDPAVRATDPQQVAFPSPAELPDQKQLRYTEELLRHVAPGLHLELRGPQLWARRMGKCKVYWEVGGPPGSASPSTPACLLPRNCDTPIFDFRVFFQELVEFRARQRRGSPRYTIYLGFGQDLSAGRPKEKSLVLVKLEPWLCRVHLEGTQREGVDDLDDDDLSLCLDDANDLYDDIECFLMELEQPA
| Sequence | log fluorescence [z-score] |
| --- | --- |
| TCAACTCTCTGGGCTGTGACTGTGCTA | -0.492 |
| TTAGGACTGGGGTTTCGGTTGGTGCTA | 5.6 |
| CTGCAGCCCACTCCTGAACAGTGCTAG | -1 |
| CTTGCCCACTTCTGTGACAGGTGCTAG | 1.42 |
| TCATCAATCATTTTAGTACTGTGCTAG | 0.517 |
| TTAGGTATCGGGTATCAGTTAGTGCTA | 0.983 |
| AACGGTCTCGGACTGGGGACGTGCTAG | 0.121 |
| TTAGGTATCGGACTGGATTAGTGCTAG | 0.358 |

Some of these lines once more (study 4):
| Sequence | log fluorescence [z-score] |
| --- | --- |
| CTGCAGCCCACTCCTGAACAGTGCTAG | -1 |
| CTTGCCCACTTCTGTGACAGGTGCTAG | 1.42 |
